# Experimental data collected from several papers.
# A part holds a random share of what one study measured.

# Set 1
# Target: Sal-like protein 4, full length isoform B (SALL4, Homo sapiens, UniProt Q9UJQ4-2, residues 1-616)
# Method: universal PBM
# Molecule type: double-stranded DNA, one strand shown
# Sample: in vitro
# Tested at: not given
# Setting: 8-mer, flanks averaged, mean of replicates
# Direction: higher = stronger binding
# Target sequence (chain): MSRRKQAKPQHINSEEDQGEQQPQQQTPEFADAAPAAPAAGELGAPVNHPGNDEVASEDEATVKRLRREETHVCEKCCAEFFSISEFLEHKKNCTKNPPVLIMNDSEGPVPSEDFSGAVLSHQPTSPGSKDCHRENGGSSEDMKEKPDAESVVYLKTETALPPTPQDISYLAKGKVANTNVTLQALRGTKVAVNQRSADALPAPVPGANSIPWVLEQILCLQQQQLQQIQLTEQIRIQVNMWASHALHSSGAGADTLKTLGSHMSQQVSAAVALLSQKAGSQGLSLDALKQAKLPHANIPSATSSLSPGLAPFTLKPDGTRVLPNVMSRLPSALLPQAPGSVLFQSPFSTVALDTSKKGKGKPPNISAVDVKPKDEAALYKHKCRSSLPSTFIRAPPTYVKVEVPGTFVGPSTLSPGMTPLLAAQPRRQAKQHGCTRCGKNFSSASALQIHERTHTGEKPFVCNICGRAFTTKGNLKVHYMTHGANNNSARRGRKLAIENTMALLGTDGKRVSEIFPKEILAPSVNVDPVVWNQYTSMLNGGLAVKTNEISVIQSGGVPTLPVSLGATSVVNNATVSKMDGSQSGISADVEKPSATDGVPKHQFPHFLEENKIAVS
Oligonucleotide,E-score
GTACGCGA,-0.0524
ACACCATG,-0.11
AGAAATTA,0.343
AGCCGCTC,-0.207
CGACGTCA,-0.0975

# Set 2
# Target: Histone acetyltransferase KAT6A, winged helix 2, GST fusion (KAT6A, Homo sapiens, UniProt Q92794, residues 85-181)
# Method: protein binding microarray
# Molecule type: double-stranded DNA, one strand shown
# Sample: in vitro
# Tested at: not given
# Setting: 8-mer, flanks averaged, mean of 2 arrays, mostly near background
# Relative to: not given
# Direction: higher = stronger binding
# Residues (chain): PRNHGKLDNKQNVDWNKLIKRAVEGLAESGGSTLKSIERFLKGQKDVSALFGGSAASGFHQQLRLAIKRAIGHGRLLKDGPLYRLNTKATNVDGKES
Oligonucleotide,E-score
AGGAGCCG,0.0909
GCAGCTCC,0.0348
AACTCTGA,0.137
CAGAATAA,0.0149

# Mixed results
# Fmr1 C-terminal low-complexity region: Fragile X messenger ribonucleoprotein 1, C-terminal low-complexity region (Fmr1, Mus musculus, UniProt P35922)
Molecule,target,assay,test system,setting,scale,endpoint,result
GGGAGUUCUACAGUCCGACGAUCAAGUCCUGUGCUACACAUCGUAUGUACCGAAUCGGCCCCCGGGCCCCCGGCCCCCGGAAAGUAUUAUGUUACGCCGUUCGGAUCUGCACUUGGAAUUCUCGGGUGUCAAGG (7-deaza-guanosine replaces G),Fmr1 C-terminal low-complexity region,RNA Bind-n-Seq,"RNA, in vitro","200 nM, whole 134-nt RNA, ends assumed, together with: 150 mM LiCl","relative to: input library, higher = stronger binding",log2 enrichment,-1.32
"PhoQ, residues 284 288 289 292 302 303 SCKMEA","PhoP, residues 12 14 15 18 19 NHFIF (Escherichia coli, UniProt P23836)","Sort-seq, refers to: YFP reporter",E. coli,"PhoQ-PhoP variant library, together with: 10 µM Mg2+","relative to: high Mg2+ state, higher = stronger signaling",fold induction,22.4
GGGAGUUCUACAGUCCGACGAUCUCAAGUCCUGUGCUACACAUCGUAUGUACCGAAUCGGGGCCGGGGCCGGGCCGGGAAAGUAUUAUGUUACGCCGUUCGGAUCUGCACUUCUGGAAUUCUCGGGUGUCAAGG (7-deaza-guanosine replaces G),Fmr1 C-terminal low-complexity region,RNA Bind-n-Seq,"RNA, in vitro","200 nM, whole 134-nt RNA, ends assumed, together with: 150 mM LiCl","relative to: input library, higher = stronger binding",log2 enrichment,0.402
GGGAGUUCUACAGUCCGACGAUCCACAGACAACACGCACCCACACAGACACAGAGGGAAGGGGUUGGGAUGGGGACAGGGUGCACAGCAGGGCGGGGUAGGGCCCCAGCCCCUUGGAAUUCUCGGGUGUCAAGG (7-deaza-guanosine replaces G),Fmr1 C-terminal low-complexity region,RNA Bind-n-Seq,"RNA, in vitro","200 nM, whole 134-nt RNA, ends assumed, together with: 150 mM LiCl","relative to: input library, higher = stronger binding",log2 enrichment,0.904
